Measurements of several laboratories.
Several values in a cell are separate wells, animals, samples, runs or records. ± gives the spread as reported. In brackets after ≈: the same amount, converted by molar mass.

| Structure (SMILES) | test | system | setting | how to read | quantity | value |
| --- | --- | --- | --- | --- | --- | --- |
| CC1(C)c2nc(-c3ccc(F)cc3)c(Nc3ccc(F)cc3)n2CCN1C(=O)CN |  | NMRI mouse Plasmodium berghei-infected, blood | oral, 1 mg/kg, 24 h, monotherapy |  | concentration at 24 h | 29 nM |
| CO[C@H]1C[C@@H]2CC[C@@H](C)[C@@](O)(O2)C(=O)C(=O)N2CCCC[C@H]2C(=O)O[C@H]([C@H](C)C[C@@H]2CC[C@@H](OC(=O)NCCOCCOCCOCCOCCOCCOCCOCCOCCC(=O)N3CCc4cc(Cn5nc(-c6ccc7oc(N)nc7c6)c6c(N)ncnc65)ccc4C3)[C@H](OC)C2)C[C@@H](O)[C@H](C)/C=C(\C)[C@@H](O)[C@@H](OC)C(=O)[C@H](C)C[C@H](C)/C=C/C=C/C=C/1C | phase 1 dose escalation, refers to: mucositis | advanced solid tumour patients | intravenous, 12 mg weekly, grade ≥3 |  | TRAE incidence | 25% |
| CC(C)Nc1ccnc(Nc2cccc(-c3cccnc3)c2)n1 | refers to: potassium | mouse, blood | intraperitoneal, 3 mg/kg |  | blood chemistry | 8.52 mmol/L |
| CCc1ccc(CC/C=C/c2ccc3c(c2)C(=O)CC3)cc1 |  | Sprague-Dawley rat, female | oral, 30 mg/kg/day, 14 days |  | Phosphorus | 2.43 mM |
| COc1ccc(-c2c(-c3ccc(C#N)c(F)c3)nc(N3CCC(N)CC3)n(C)c2=O)cc1F | refers to: Colitis | human patients | oral, dose not given, dose escalation, NG |  | serious adverse event incidence | 2% |
| COc1cc2c(Oc3ccc4[nH]c(C)cc4c3F)ccnc2cc1OCC1(N)CC1 |  | paediatric recurrent refractory sarcoma | concentration not given, whole group |  | grade 1 or 2 Tinnitus | 5.9% |
| CN1CCN(S(=O)(=O)c2cc([N+](=O)[O-])ccc2N(CCOS(C)(=O)=O)CCOS(C)(=O)=O)CC1 |  | naive female NSG mice, plasma | intraperitoneal, 5 mg/kg |  | elimination rate constant | 0.00161 s⁻¹ |
| N[C@@H]1c2ccccc2OC12CCN(c1cnc3c(N4CCCc5ncccc54)n[nH]c3n1)CC2 | phase Ia | patients advanced metastatic solid tumours | oral, dose not given, all doses, any relationship |  | AST increased AE incidence | 21% |
| NC(=O)[C@H]1CCN(c2ncnc(N)c2F)C[C@@H]1N1CCC[C@@H](Nc2cc(Cl)cc(C(F)(F)F)c2)C1=O |  | B-cell malignancy patients | oral, 82 mg twice daily, dose |  | grade ≥3 anaemia | 14% |
| CN1CC[C@@H](c2c(O)cc(O)c3c(=O)cc(-c4ccc(C(F)(F)F)cc4Cl)oc23)[C@@H]1CO | refers to: Diarrhea | B-cell malignancies or AML | oral, 50 mg, continuous dosing |  | patients with adverse event | 25% |
| C=CC(=O)N1CC[C@H](n2nc(C#Cc3cc(OC)cc(OC)c3)c3c(N)ncnc32)C1 |  | human patients | oral, dose not given, QD regimen, adverse drug reaction, together with: any phosphate binder |  | any adverse drug reaction, any grade | 100% |
| CC(=O)c1c(C)c2cnc(Nc3ccc(C4CCN(CCS(C)(=O)=O)CC4)cn3)nc2n(C2CCCC2)c1=O |  | HR+/HER2- advanced breast cancer patients | oral, 100 mg bid, all grades, monotherapy arm |  | patients with neutropenia | 93.3% |
| CC(C)CC(=O)OC[C@H]1O[C@@](C#N)(c2ccc3c(N)ncnn23)[C@H](O)[C@@H]1O |  | human whole blood | 5 µM, 60 min |  | remaining compound | 0.439 ± 0.183% |
| CC[C@H](C)[C@H](NC(=O)[C@H](Cc1ccccc1)NC(=O)[C@H](CCC(=O)O)NC(=O)[C@H](CCCCN)NC(=O)[C@H](C)NC(=O)[C@H](C)NC(=O)[C@H](CCC(N)=O)NC(=O)CNC(=O)[C@H](CCC(=O)O)NC(=O)[C@H](CC(C)C)NC(=O)[C@H](Cc1ccc(O)cc1)NC(=O)[C@H](CO)NC(=O)[C@H](CO)NC(=O)[C@@H](NC(=O)[C@H](CC(=O)O)NC(=O)[C@H](CO)NC(=O)[C@@H](NC(=O)[C@H](Cc1ccccc1)NC(=O)[C@@H](NC(=O)CNC(=O)[C@H](CCC(=O)O)NC(=O)[C@H](C)NC(=O)N(N)Cc1c[nH]cn1)[C@@H](C)O)[C@@H](C)O)C(C)C)C(=O)N[C@@H](C)C(=O)N[C@@H](Cc1c[nH]c2ccccc12)C(=O)N[C@@H](CC(C)C)C(=O)N[C@H](C(=O)N[C@@H](CCCNC(=N)N)C(=O)NCC(=O)N[C@@H](CCCNC(=N)N)C(=O)NCC(=O)O)C(C)C |  | male ICR mice, plasma | intravenous bolus, 1 mg/kg |  | clearance | 7.83 mL/min/kg and 6.19 mL/min/kg and 7.02 mL/min/kg |
| COc1ncccc1-c1cnn2ccc(N3CCN(C(=O)OC(C)C)CC3)nc12 |  | mouse, formalin test, plasma | oral, 10 mg/kg, 60 min |  | drug concentration | 4100 nM |
| COc1ccc(CCC2CCCC(CCc3ccc(OC)cc3)N2C[C@@H](O)CO)cc1.Cl (stereo in doubt) |  | rabbit Purkinje fibres | 0.03 µM, cycle length 0.5 s | reference: baseline | APD90 change | 9.7 ± 0.9% |
| CCC(C(=O)Nc1sc(C(N)=O)c(C)c1C(=O)OC)c1ccc(F)cc1 (stereo not drawn) |  | PBS |  |  | thermodynamic solubility | 5.87 µM (≈ 2.22 µg/mL) |
| CC[C@H](C)[C@H](NC(=O)[C@H](Cc1ccccc1)NC(=O)[C@H](CCC(=O)O)NC(=O)[C@H](CCCNC(=N)N)NC(=O)[C@H](C)NC(=O)[C@H](C)NC(=O)[C@H](CCC(N)=O)NC(=O)[C@H](CCC(=O)O)NC(=O)[C@H](CCC(=O)O)NC(=O)[C@H](CC(C)C)NC(=O)[C@H](Cc1ccc(O)cc1)NC(=O)[C@H](CO)NC(=O)[C@H](CO)NC(=O)[C@@H](NC(=O)[C@H](CC(=O)O)NC(=O)[C@H](CO)NC(=O)[C@@H](NC(=O)[C@H](Cc1ccccc1)NC(=O)[C@@H](NC(=O)CNC(=O)[C@H](CCC(=O)O)NC(=O)[C@H](C)NC(=O)CCc1cnc[nH]1)[C@@H](C)O)[C@@H](C)O)C(C)C)C(=O)N[C@@H](C)C(=O)N[C@@H](Cc1c[nH]c2ccccc12)C(=O)N[C@@H](CC(C)C)C(=O)N[C@H](C(=O)N[C@@H](CCCNC(=N)N)C(=O)NCC(=O)N[C@@H](CCCNC(=N)N)C(=O)N[C@@H](CCCCNC(=O)COCCOCCNC(=O)COCCOCCNC(=O)CC[C@H](NC(=O)CCCCCCCCCCCCCCCCC(=O)O)C(=O)O)C(=O)NCC(=O)NCC(=O)N[C@@H](CO)C(=O)N[C@@H](CCCCNC(=O)[C@H](CCCCNc1c(NCCCCCN(O)C(=O)CCC(=O)NCCCCCN(O)C(=O)CCC(=O)NCCCCCN(O)C(C)=O)c(=O)c1=O)Nc1c(NCCCCCN(O)C(=O)CCC(=O)NCCCCCN(O)C(=O)CCC(=O)NCCCCCN(O)C(C)=O)c(=O)c1=O)C(=O)O)C(C)C [zirconium-89 labelled] | ex vivo gamma counting | male Sprague-Dawley rats, stomach | intravenous, 1 nmol, 24 h |  | tissue uptake | 0.195 %ID/g |
| O=C(O)CCC(CP(=O)(O)O)C(=O)O (stereo not drawn) |  | rat plasma | 4 µg/mL, 4 h, room temperature, bench-top stability |  | measured concentration | 4.22 ± 0.28 µg/mL |
| C[C@]1(CO)Cc2ncn(-c3ccc(C#N)c(Cl)c3)c2C(=O)O1 |  | human | 2 mg single dose |  | subjects with drug-related headache | 0% |
| C[C@@H]1NC(=O)[C@H](CCCCNC(=O)CO/N=C/C(=O)NCCCC[C@@H]2NC(=O)[C@@H](Cc3ccccc3)NC(=O)[C@H](CC(=O)O)NC(=O)CNC(=O)[C@H](CCCNC(=N)N)NC2=O)NC(=O)CNC(=O)[C@@H]2CCCN2C(=O)[C@H](CCCCNC(=O)CO/N=C/C(=O)NCCCC[C@@H]2NC(=O)[C@@H](Cc3ccccc3)NC(=O)[C@H](CC(=O)O)NC(=O)CNC(=O)[C@H](CCCNC(=N)N)NC2=O)NC(=O)[C@H](CCCCNC(=O)CN2CCCNCCNCCCNCC2)NC(=O)[C@H](CCCCNC(=O)CO/N=C/C(=O)NCCCC[C@@H]2NC(=O)[C@@H](Cc3ccccc3)NC(=O)[C@H](CC(=O)O)NC(=O)CNC(=O)[C@H](CCCNC(=N)N)NC2=O)NC(=O)CNC(=O)[C@@H]2CCCN2C(=O)[C@H](CCCCNC(=O)CO/N=C/C(=O)NCCCC[C@@H]2NC(=O)[C@@H](Cc3ccccc3)NC(=O)[C@H](CC(=O)O)NC(=O)CNC(=O)[C@H](CCCNC(=N)N)NC2=O)NC1=O [copper-64 labelled] | PET imaging | mouse, U-87 MG tumour xenograft, liver | intravenous, 24 h |  | tissue uptake | 3.08 ± 0.23 %ID/g |

Some of these lines once more:
| Structure (SMILES) | test | system | setting | how to read | quantity | value |
| --- | --- | --- | --- | --- | --- | --- |
| COc1cc2c(Oc3ccc4[nH]c(C)cc4c3F)ccnc2cc1OCC1(N)CC1 |  | paediatric recurrent refractory sarcoma | concentration not given, whole group |  | grade 1 or 2 Tinnitus | 5.9% |
| CN1CCN(S(=O)(=O)c2cc([N+](=O)[O-])ccc2N(CCOS(C)(=O)=O)CCOS(C)(=O)=O)CC1 |  | naive female NSG mice, plasma | intraperitoneal, 5 mg/kg |  | elimination rate constant | 0.00161 s⁻¹ |
